Assay results pooled from the literature.
Each numbered part is a random draw from the data of one study; scales do not carry over between parts. Substitutions count along the parent as printed.

Study 1
Target: CCNA2, cyclin fold, Cln2 fusion (human)
Method: yeast growth competition, sequencing
Matrix: yeast
Notes: weak parent motif
Reference: not given
Reading: higher = stronger binding
Starting sequence: PKN2 docking peptide (human); DSTVTKLDFDLEP
Substitution	normalised enrichment score
T3A	0.649
K6A	-0.299
V4A	0.089
P13A	-0.323
T5A	-0.423
D8A	-0.395
E12A	-0.489

Study 2
Target: ABI1, truncated, D143A, DHFR fusion (Arabidopsis thaliana)
Method: DHFR PCA, deep sequencing
Matrix: yeast
Notes: methotrexate growth selection, single substitutions
With: (+)-ABA 0 µM
Reference: wild-type fitted maximum
Reading: higher = stronger binding
Starting sequence: PYL1, truncated, DHFR fusion (Arabidopsis thaliana); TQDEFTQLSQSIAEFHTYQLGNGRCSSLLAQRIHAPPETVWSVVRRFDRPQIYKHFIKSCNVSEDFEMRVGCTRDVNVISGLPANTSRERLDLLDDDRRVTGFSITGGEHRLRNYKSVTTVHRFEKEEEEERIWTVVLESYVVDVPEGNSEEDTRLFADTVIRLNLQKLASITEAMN; partner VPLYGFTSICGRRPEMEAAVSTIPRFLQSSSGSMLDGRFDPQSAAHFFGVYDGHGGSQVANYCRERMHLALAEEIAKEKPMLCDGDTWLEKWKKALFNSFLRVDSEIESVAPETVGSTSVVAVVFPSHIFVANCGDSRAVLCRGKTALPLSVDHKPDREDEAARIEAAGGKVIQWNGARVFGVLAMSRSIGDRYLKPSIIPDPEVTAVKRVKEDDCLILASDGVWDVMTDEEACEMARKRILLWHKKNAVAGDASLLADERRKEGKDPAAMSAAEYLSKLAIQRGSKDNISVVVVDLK
Substitution	relative binding score
S42H	7.64%
Y115F	19.2%
A158W	1.71%
P83T	16.6%
E174F	-12.7%
P83E	16.6%
G102I	-0.411%
L156M	23.7%
N77A	42.1%
Q167G	4.32%
V143G	-4.72%
I172L	12.2%
A170R	20.9%
K58A	10.5%
A158N	11.4%
V142M	-4.32%
T160E	11.6%
H16D	-0.119%
L164H	12.5%
M176I	7.8%
I52M	30%
V137A	3.1%
E131G	58.4%
F56C	-1.56%
N165H	5.78%

Study 3
Target: RNA binding protein fox-1 homolog 2, RRM domain, GST-SBP tag (RBFOX2, Homo sapiens, UniProt O43251-10, residues 100-194)
Method: RNA Bind-n-Seq
Form: RNA
Matrix: in vitro
Tested at: 365 nM
Notes: natural RNA segment, single round, ends assumed
Reference: no-protein control
Reading: higher = stronger binding
Residues (chain): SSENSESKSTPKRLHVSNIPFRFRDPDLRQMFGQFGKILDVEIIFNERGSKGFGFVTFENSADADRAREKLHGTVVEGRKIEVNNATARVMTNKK
Sequence	RBNS enrichment (R)
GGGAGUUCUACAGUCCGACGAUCUGACCUUUGCUGAGCUCAGUGACUCUUCAGUGUUAAAACUGAACCCCAGAGGGGAUUCUCCAUGCCAGAUCCGCUGCAAAUUAAAUAAUACCAAUUUUCUAGAGUCCCUCUGGAAUUCUCGGGUGCCAA	0.361
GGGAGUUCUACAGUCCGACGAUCGGGGCUGGAAGCCGAGCGCAUGCUGGGAGCGGUACUGUCAGAAGUGAGCCCAGUUAGUACCCCGCUGGCUCACUGCACGAGAGAGUCCUGCCCCGAGCCCUAGGUGGGGCUGGAAUUCUCGGGUGCCAA	9.07
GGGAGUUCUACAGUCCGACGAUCUGAGGCUUACAGAGUUCAAUGUUGGAAAUCAUUGUAAUCUUCAAAAUAAGUCACCGUGUUGGAUUGAAAGCUUCAAAAUUUGAAAGAAUUCCAUCAAAUACUUGCUGUGUUGGAAUUCUCGGGUGCCAA	0.702
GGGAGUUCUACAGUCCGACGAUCGCCCCGAGCUCGGGGAAGGGGUUUUCCCUUCCUCUCUGACCCAGAUCUGCGCGCGGCCUAGCCCGGGCCUCAUUUCUUAUCCCCGCCAAGGGUUUCCUCUCAGUCAUUUGUGGAAUUCUCGGGUGCCAA	0.186
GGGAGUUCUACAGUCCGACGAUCGAUUUGGUGCUAAGUUAAUUAGAAACUGGCAGCGUUUUACAGUAGUACACCAGCCUGGAUGUUUUUUCUAAAAUGUUUACCUGGGAGAGCUGGGGUUUGUUUGUGAGGAGUGGAAUUCUCGGGUGCCAA	1.07
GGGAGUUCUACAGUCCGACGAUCCCUUGGGGGCCUGUCACUUGCCAAAGUAACAUUCCUCUCUUGGGCCAAAAUGAAUGCUGACUCCUGAUACUCCGCACAAGCACACCAACUCCAAAAGUGCCUUAAAGCCAUGGAAUUCUCGGGUGCCAA	0.234
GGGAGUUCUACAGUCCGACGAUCUCCUUUUUCCAUUUAUCUGUGGAAACCAACAGAUAUUGCUCUAUAUUUUUUGUAUUAGUAUGGUUUGAGACAACAUAUGGAAAAUGUUCACAUUUGUAGAUUAAGCUGGAUGGAAUUCUCGGGUGCCAA	0.999
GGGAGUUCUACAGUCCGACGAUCUGUGUUCUUCCAGCCAGCCUUGGGCUUUGGGCCCAGCCAGGCUCACACCCAGAAAGGGGUGUCCUGACACCCCACCCAGGCCUUGAGGACGGUGCGGUAAUGACUGCCCAUGGAAUUCUCGGGUGCCAA	0.281
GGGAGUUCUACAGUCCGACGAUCAUCUGCAGAGAGCUUGGCAGCUCCAGCUCUCCUCAGCAGGCCUCUCCACCCUGAUCUGGCCCCUGUUAGCCCAUGAGCCCUCUUUAUGUACCCAUCCUCCCUUUCUGAACUGGAAUUCUCGGGUGCCAA	0.371
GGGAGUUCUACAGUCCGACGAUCGGACAAAGCCUCCUGAUUCUACCUGGAUCACUCCUGUUAUGUGACAGUUAUGUGGUGGGUCCCUGCUAAAAUCUCCCUGACCACCUGAGGGCAUAAAGCAUGUGUCUUAUUGGAAUUCUCGGGUGCCAA	13.9
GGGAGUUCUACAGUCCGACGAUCAAACUAUUGUCCAUUAACAUGAUAUGCUAAACAUUCUAUAAACAUUCUUGUAUUUAUGUGAGACUUGCCCAUCUACUGUCUUGGCUGUGUCUUGCCUUUUAAUCAUGAACUGGAAUUCUCGGGUGCCAA	0.532
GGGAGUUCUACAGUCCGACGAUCUUUAAAAAUCUGUGAAAUUAACAUGCUUGUGUAUAGCUUUCUAAUAUAUAUAAUAUUAUGGUAAUGGCAGAAGUUUUGUUUUCUUAAUAGCGGGAGGGGGGUAUAUUUGUUGGAAUUCUCGGGUGCCAA	0.816

Study 4
Target: Sal-like protein 4, full length isoform A (SALL4, Homo sapiens, UniProt Q9UJQ4, residues 1-1053)
Chain of UniProt Q9UJQ4 (whole entry, looked up): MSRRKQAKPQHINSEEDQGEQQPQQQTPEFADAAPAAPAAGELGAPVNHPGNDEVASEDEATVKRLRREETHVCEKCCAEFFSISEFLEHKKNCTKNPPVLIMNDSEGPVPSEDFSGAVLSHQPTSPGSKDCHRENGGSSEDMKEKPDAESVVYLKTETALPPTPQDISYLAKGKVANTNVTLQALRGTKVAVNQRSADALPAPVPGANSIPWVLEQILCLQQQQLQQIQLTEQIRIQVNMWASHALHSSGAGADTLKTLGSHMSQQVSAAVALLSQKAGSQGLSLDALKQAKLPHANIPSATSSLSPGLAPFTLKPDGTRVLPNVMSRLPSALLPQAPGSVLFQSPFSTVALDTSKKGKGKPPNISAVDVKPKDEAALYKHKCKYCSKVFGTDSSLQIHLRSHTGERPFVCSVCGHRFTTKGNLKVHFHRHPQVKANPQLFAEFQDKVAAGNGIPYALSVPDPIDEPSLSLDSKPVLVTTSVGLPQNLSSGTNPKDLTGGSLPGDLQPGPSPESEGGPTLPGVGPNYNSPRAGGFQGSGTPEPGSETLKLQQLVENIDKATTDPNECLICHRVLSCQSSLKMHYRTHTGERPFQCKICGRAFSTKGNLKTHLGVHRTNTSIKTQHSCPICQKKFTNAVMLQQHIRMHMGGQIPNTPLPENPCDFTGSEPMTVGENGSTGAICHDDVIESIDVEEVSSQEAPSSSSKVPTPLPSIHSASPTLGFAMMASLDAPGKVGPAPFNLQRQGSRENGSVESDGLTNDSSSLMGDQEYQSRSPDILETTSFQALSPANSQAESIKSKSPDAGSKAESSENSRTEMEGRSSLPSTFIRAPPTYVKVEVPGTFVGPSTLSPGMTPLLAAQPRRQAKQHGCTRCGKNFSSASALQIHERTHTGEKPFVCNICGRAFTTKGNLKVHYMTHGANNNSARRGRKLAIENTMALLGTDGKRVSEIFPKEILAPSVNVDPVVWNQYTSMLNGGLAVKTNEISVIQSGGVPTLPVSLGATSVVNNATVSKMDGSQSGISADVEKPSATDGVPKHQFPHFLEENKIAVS
Method: universal PBM
Form: double-stranded DNA, one strand shown
Matrix: in vitro
Tested at: 600 nM
Notes: 8-mer, flanks averaged, mean of replicates
Reading: higher = stronger binding
Sequence	E-score
CAAGATAC	0.146
CCAAATAA	0.231
ATGCGTAG	0.0507
GACCGCGC	-0.291
TCAGCGCA	-0.125
CACAAGGC	-0.145
CTACCGAA	0.0207
ATCTCAGC	-0.044
GCTTACAC	-0.287
AGAACTCC	-0.137
AGGGTAAG	0.0292
CATGATTA	0.353
AACTAAAC	0.11
ATCAATCA	0.272
AGTTGTTG	-0.0306
GGTCTACA	-0.00513
TCATCAGA	0.127
ATTTATTA	0.444

Study 5
Target: Histone acetyltransferase KAT6A, winged helix 2, GST fusion (KAT6A, Homo sapiens, UniProt Q92794, residues 85-181)
Method: protein binding microarray
Form: double-stranded DNA, one strand shown
Matrix: in vitro
Tested at: not given
Notes: 8-mer, flanks averaged, mean of 2 arrays, mostly near background
Reference: not given
Reading: higher = stronger binding
Residues (chain): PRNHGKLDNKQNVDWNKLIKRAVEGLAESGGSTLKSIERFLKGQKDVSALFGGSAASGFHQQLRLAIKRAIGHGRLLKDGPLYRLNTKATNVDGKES
Sequence	E-score
AAGAAGTA	-0.0146
GCCAACGC	0.152
AGGCGGCA	0.14
CGTACTTA	-0.0671
CCATCAGC	-0.086
GGATATTA	-0.0465
CTGACGTC	-0.000325
AAGCCCGA	0.0789
ATTTCTGC	0.244
GGGACACC	0.137
CACGATAC	-0.133
GTAGCTGA	-0.089
ACACACTG	-0.0796
ATATAGAA	-0.14
CGCGAGAC	0.0199
AAATGACT	-0.119

Study 6
Target: CRIPT, C-terminal peptide
Method: DHFR complementation, deep sequencing
Matrix: yeast
Notes: single substitutions, model-inferred values
Reference: wild type
Reading: higher = weaker binding
Starting sequence: ERBIN, PDZ domain 1 (human); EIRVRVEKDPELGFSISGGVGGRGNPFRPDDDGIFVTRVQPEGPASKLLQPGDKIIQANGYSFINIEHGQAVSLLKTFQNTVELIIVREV; partner TKNYKQTSV
Substitution	binding free energy change [kcal/mol]
T81C	0.12
K76P	1.6
N65W	0.16
D53R	0.925
V72P	1.76
E67W	0.457
T77I	0.334
P41W	0.492
G22H	0.366
V82N	1.56
Q79D	-0.011
I2L	-0.0878
E89C	0.0761
K47N	0.0865
Q70R	0.0571
Q57G	-0.22
V6S	0.803
K47E	0.0398
L49G	0.821
P41M	0.318
V90M	-0.0926
I16A	0.554
V20R	-0.0473
D53T	0.0826
G19A	1.13

A few entries again (study 2):
Substitution	relative binding score
I172L	12.2%
S42H	7.64%
V137A	3.1%
E174F	-12.7%
H16D	-0.119%
F56C	-1.56%
N77A	42.1%
M176I	7.8%
G102I	-0.411%
Q167G	4.32%
T160E	11.6%
I52M	30%
N165H	5.78%
A170R	20.9%
P83E	16.6%
V142M	-4.32%
